Measurements from different studies.
Compare with care: the assays were run in different laboratories. ± marks the error that the study gave. In brackets after ≈: the same amount, converted by molar mass.
Target: Cytochrome P450 2C9 (CYP2C9, Homo sapiens, UniProt P11712)
Chain of UniProt P11712 (whole entry, looked up): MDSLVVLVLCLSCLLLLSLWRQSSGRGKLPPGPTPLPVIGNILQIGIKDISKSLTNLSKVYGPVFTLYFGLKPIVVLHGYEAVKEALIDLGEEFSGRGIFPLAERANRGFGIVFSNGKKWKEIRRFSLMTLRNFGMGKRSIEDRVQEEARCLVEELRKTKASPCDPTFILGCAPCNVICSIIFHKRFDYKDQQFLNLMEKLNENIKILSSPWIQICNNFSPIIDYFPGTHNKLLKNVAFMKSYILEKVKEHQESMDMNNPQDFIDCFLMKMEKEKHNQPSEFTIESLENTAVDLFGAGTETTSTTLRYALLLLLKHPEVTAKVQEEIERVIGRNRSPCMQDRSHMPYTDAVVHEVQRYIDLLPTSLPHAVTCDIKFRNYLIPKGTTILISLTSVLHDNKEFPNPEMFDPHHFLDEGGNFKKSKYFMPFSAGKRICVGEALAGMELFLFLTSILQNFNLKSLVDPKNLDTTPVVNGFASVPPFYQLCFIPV

Structure (SMILES)	test	test system	conditions	quantity	value
C[C@H]1CN(C2COC2)CCN1c1ccc(Nc2cc(-c3ccnc(N4CCn5c(cc6c5CC(C)(C)C6)C4=O)c3CO)cn(C)c2=O)nc1	substrate	recombinant enzyme	1 µM, 60 min	remaining compound	85.6 ± 6.6%
C=CCN=C=S	enzyme activity	human liver microsomes	concentration not given, 10 min, with: tolbutamide	inhibition	~77%
N#C[C@H](C[C@@H]1CCCNC1=O)NC(=O)[C@H](CC1CC1)NC(=O)c1cc2cccc(Cl)c2[nH]1	NADPH metabolic stability		2 µM, pH 7.4	half-life	> 10 min
CC(C)=CCc1c(O)cc(O)c2c1O[C@H](c1ccc(O)cc1)CC2=O			10 µM, pH 7.4	inhibition	93 ± 0.6%
CCCCC1=NC2(CCCC2)C(=O)N1Cc1ccc(-c2ccccc2S(=O)(=O)Nc2noc(C)c2C)c(COCC)c1	substrate	recombinant human CYP		fraction metabolized	18.5%
C=CC(=O)Nc1cc(Nc2nccc(-c3cn(C)c4ccccc34)n2)c(OCC(F)(F)F)nc1N(C)CCN(C)C	substrate depletion	recombinant human CYP	1 µM	intrinsic clearance	0.3 µL/min/pmol
COc1cc(O)c(CC=C(C)C)c(O)c1C(=O)/C=C/c1ccc(O)cc1	enzyme activity, inhibitor	human liver microsomes	10 µM, pH 7.4, with: tolbutamide	inhibition	69.7 ± 3%
O=C(O)/C=C/c1ccccc1	inhibitor			IC50	30 µg/mL (≈ 202 µM)
CC(C)=CCc1c(O)cc2c(c1O)C(=O)C[C@@H](c1ccc(O)cc1)O2			1 µM, pH 7.4	inhibition	< 10%
CCc1cc(/C(C)=N/OCc2ccc(C3CCCCC3)c(C(F)(F)F)c2)ccc1CN1CC(C(=O)O)C1	population PK	human, CYP2C9*1/*2, plasma		CYP2C9-mediated clearance	2.52 L/h

Repeated from above:
Structure (SMILES)	test	test system	conditions	quantity	value
CCCCC1=NC2(CCCC2)C(=O)N1Cc1ccc(-c2ccccc2S(=O)(=O)Nc2noc(C)c2C)c(COCC)c1	substrate	recombinant human CYP		fraction metabolized	18.5%
